Experimental data collected from several papers.
Numbered parts are unrelated; each lists some results of a single study. Substitutions count along the parent as printed.
Sequence of UniProt Q9UM73 (whole entry, unmodified, looked up): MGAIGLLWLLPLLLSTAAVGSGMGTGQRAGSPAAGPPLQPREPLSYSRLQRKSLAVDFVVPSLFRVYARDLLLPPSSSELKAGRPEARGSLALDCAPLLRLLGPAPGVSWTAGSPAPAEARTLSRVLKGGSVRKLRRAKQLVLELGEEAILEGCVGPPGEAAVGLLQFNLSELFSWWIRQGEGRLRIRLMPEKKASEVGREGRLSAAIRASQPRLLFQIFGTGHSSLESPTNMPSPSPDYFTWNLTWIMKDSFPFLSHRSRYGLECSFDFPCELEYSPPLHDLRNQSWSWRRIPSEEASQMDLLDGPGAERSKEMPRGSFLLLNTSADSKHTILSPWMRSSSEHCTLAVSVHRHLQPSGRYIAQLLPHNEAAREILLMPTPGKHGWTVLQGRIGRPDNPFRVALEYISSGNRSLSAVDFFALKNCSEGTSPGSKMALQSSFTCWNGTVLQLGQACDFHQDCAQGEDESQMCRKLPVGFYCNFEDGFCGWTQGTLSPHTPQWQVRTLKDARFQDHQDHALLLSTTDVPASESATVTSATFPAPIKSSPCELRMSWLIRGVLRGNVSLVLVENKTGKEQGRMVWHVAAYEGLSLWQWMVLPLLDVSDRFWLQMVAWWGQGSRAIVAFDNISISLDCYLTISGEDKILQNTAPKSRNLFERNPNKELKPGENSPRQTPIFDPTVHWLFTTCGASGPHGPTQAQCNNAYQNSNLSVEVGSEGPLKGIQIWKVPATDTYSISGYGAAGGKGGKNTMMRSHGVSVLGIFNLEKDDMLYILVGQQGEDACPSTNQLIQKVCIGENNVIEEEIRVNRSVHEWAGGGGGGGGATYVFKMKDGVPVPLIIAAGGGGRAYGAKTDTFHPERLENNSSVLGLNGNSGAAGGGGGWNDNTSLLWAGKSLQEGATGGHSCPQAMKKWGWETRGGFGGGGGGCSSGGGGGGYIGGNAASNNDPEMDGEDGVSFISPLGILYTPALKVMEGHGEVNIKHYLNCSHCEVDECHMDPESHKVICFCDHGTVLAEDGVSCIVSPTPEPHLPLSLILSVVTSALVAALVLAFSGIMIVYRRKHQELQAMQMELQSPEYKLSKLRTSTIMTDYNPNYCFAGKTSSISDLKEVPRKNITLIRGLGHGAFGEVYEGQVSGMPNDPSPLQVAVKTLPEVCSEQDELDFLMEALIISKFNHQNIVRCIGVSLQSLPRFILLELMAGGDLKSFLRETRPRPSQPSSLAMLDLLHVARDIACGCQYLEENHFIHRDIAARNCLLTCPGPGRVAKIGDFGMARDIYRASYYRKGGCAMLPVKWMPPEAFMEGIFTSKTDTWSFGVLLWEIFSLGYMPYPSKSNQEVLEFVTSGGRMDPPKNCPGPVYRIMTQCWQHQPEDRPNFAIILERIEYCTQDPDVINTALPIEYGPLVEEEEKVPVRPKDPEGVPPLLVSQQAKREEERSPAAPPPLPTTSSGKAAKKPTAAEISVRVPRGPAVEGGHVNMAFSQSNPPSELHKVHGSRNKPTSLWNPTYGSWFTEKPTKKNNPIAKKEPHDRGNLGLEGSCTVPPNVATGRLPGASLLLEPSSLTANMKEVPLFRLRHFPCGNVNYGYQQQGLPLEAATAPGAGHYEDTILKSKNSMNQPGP
Sequence of UniProt Q96NX5 (whole entry, looked up): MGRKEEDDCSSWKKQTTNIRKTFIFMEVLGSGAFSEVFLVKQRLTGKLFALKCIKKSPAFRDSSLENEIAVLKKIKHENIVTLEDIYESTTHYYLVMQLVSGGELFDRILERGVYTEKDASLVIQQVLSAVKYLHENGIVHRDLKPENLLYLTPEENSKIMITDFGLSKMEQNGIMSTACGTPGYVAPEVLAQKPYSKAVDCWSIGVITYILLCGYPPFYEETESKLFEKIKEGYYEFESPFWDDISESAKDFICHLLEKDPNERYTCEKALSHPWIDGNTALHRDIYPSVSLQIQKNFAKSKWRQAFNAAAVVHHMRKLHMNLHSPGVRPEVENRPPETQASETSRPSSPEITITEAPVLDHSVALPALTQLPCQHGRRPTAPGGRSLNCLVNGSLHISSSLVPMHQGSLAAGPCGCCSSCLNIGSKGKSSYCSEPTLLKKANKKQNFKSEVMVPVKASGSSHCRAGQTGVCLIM
Sequence of UniProt O15075 (whole entry, looked up): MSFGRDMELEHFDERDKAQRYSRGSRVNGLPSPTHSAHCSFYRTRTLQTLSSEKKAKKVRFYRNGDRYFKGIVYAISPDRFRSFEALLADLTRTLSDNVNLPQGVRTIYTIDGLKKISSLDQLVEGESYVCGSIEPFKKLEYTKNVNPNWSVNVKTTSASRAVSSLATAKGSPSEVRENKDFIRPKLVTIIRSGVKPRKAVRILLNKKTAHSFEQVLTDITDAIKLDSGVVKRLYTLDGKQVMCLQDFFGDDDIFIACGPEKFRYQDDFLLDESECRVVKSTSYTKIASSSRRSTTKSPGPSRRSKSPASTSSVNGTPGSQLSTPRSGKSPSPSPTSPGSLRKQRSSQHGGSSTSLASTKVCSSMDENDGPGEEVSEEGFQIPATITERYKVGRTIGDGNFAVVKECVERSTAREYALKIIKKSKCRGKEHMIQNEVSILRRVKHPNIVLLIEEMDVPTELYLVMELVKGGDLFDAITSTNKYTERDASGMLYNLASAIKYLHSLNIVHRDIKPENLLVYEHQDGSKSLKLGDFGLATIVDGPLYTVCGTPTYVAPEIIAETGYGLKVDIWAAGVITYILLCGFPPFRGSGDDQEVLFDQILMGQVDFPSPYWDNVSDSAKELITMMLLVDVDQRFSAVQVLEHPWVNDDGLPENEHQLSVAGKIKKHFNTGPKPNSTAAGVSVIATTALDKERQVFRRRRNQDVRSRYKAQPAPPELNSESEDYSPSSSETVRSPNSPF
Sequence of UniProt Q9NY57 (whole entry, looked up): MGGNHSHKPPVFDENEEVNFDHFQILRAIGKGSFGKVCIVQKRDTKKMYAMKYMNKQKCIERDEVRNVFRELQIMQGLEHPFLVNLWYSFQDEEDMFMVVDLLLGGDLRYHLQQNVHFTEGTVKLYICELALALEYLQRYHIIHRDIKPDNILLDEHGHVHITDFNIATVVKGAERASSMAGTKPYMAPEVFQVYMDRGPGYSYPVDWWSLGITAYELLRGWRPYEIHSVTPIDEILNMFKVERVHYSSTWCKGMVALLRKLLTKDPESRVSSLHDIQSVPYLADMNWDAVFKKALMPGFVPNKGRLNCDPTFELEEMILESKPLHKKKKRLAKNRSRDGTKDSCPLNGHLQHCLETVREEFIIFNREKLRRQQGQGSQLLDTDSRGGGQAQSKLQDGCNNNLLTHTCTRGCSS
Sequence of UniProt P41743 (whole entry, looked up): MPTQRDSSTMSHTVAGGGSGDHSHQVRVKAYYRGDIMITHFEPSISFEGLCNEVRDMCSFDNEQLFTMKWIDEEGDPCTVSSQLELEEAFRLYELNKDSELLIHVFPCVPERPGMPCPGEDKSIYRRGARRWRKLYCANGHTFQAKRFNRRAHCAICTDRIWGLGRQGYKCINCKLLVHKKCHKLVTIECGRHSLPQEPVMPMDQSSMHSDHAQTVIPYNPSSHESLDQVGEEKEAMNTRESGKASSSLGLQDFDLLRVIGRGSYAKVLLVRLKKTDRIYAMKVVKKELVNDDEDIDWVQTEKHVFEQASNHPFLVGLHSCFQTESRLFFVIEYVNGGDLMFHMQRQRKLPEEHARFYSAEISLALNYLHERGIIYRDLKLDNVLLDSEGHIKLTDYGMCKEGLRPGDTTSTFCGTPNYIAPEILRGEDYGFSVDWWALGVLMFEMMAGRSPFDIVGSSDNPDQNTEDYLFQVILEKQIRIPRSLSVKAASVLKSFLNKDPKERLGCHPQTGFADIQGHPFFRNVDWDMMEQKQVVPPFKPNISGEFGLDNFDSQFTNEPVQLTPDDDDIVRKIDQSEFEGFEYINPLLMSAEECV

Sample 1
SMILES: O=C(NS(=O)(=O)c1ccc(NCC2CCOCC2)c([N+](=O)[O-])c1)c1ccc(N2CCN(Cc3ccc(C(F)(F)F)cc3-c3ccc(Cl)cc3)CC2)cc1Oc1cnc2[nH]ccc2c1
Read-out: cell-free assay
Method: competition with immobilised ligand
Tested at: 1 µM
Quantity: remaining binding
STK32B (Homo sapiens, UniProt Q9NY57): 100%
DCLK1 (Homo sapiens, UniProt O15075): 100%
PRKCI (Homo sapiens, UniProt P41743): 100%
IKBKB (Homo sapiens, UniProt O14920): 74%
PIK3C2G (Homo sapiens, UniProt O75747): 80%
MAP3K20 (Homo sapiens, UniProt Q9NYL2): 100%
CAMK1G (Homo sapiens, UniProt Q96NX5): 92%
ALK (Homo sapiens, UniProt Q9UM73, L1196M): 100%

Sample 2
Target: Beta-1 adrenergic receptor (ADRB1, Homo sapiens, UniProt P08588)
Sequence of UniProt P08588 (whole entry, looked up): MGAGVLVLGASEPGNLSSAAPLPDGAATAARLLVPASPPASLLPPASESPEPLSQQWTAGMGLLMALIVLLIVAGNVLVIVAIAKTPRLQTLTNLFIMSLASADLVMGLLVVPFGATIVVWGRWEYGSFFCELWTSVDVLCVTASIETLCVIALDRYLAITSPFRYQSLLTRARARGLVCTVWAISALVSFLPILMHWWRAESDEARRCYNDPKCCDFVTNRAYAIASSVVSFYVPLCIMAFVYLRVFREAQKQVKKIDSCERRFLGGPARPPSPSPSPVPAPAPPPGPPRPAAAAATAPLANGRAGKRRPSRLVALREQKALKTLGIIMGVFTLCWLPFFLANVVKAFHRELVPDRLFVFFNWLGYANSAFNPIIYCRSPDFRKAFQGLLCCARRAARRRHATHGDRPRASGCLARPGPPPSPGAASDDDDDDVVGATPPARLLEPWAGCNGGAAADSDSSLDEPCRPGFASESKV
Mode: antagonist
Quantity: IC50
CN(CC(O)COc1cccc(CNCCc2ccc(F)cc2)c1)C1CCCCC1 (stereo not drawn): ≥ 100 µM
COc1ccccc1N1CCN(C(=O)c2ccc3[nH]c(C)c(C)c3c2)CC1: ≥ 100 µM
Fc1ccc2c(c1)nc1n2[C@@H](CNCc2ccccc2)COC1: 15.8 µM

Sample 3
Target: BATF2, bZIP domain (human)
Method: DHFR protein complementation
Medium: yeast
Notes: single substitutions, most at no-binding floor
Baseline: wild-type JUN-FOS pair
Reading: higher = stronger binding
Quantity: binding fitness
Starting sequence: JUN, bZIP domain (human); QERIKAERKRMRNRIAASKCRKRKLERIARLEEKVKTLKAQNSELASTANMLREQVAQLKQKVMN; partner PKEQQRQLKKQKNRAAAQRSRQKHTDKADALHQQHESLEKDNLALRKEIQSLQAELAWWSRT
A49V: -0.352 natural log
K39D: -0.942 natural log
E33D: -0.42 natural log
A46K: -0.137 natural log
K39C: -0.789 natural log
V35Q: -1.57 natural log
A46S: -0.375 natural log
Q41N: -0.773 natural log

Sample 4
Target: Prothrombin, mature alpha-thrombin (F2, Homo sapiens, UniProt P00734)
Method: aptamer microarray, sandwich
Molecule type: DNA with 2'F-ANA
Medium: in vitro
Tested at: 200 nM
Notes: whole 15-mer aptamer, many near background
Added: Cy3 exosite-II aptamer, 400 nM
Reading: higher = stronger binding
Quantity: mean fluorescence intensity
Oligonucleotide: GGTTGGTGTGGTTGG
2'F-ANA at 2 3 4 5 7 10 12 14: 115 a.u.
2'F-ANA at 1 4 5 6 7 9 10 11 15: 68 a.u.
2'F-ANA at 5 6 7 8 10 11 13 14: 45.4 a.u.
2'F-ANA at 3 5 7 10 11 12 13 14: 55.1 a.u.
2'F-ANA at 5 6 7 8 11 13 14 15: 49.1 a.u.
2'F-ANA at 2 5 7 14: 48.3 a.u.
2'F-ANA at 1 5 7 11 13: 51.1 a.u.
2'F-ANA at 2 3 4 5 7 8 12 14 15: 79.3 a.u.
